Assay results gathered from unrelated publications.
Parts stem from different laboratories: compare values within a part only. Several values in a cell are separate wells, animals, samples, runs or records.

Sample 1
Structure (SMILES): C[C@@H]1CN(c2ccc(-c3cc(C(=O)NCCOCCOCCOCCOCCNC(=O)/C=C/c4[nH]cc(C(=O)N[C@@H](CC(N)=O)c5ccc(F)c(Cl)c5)c4-c4ccc(Cl)cc4F)ccc3F)cc2NC(=O)c2c[nH]c(=O)cc2C(F)(F)F)C[C@H](C)N1C
Observed: thermal unfolding
Method: differential scanning fluorimetry
Tested at: 5.5 µM
Direction: higher = more unfolded
Measurement: SYPRO Orange fluorescence
WDR5: WD repeat-containing protein 5 (WDR5, Homo sapiens, UniProt P61964)
DCAF1: DDB1- and CUL4-associated factor 1 (DCAF1, Homo sapiens, UniProt Q9Y4B6)
Sequence of UniProt Q9Y4B6 (whole entry, looked up): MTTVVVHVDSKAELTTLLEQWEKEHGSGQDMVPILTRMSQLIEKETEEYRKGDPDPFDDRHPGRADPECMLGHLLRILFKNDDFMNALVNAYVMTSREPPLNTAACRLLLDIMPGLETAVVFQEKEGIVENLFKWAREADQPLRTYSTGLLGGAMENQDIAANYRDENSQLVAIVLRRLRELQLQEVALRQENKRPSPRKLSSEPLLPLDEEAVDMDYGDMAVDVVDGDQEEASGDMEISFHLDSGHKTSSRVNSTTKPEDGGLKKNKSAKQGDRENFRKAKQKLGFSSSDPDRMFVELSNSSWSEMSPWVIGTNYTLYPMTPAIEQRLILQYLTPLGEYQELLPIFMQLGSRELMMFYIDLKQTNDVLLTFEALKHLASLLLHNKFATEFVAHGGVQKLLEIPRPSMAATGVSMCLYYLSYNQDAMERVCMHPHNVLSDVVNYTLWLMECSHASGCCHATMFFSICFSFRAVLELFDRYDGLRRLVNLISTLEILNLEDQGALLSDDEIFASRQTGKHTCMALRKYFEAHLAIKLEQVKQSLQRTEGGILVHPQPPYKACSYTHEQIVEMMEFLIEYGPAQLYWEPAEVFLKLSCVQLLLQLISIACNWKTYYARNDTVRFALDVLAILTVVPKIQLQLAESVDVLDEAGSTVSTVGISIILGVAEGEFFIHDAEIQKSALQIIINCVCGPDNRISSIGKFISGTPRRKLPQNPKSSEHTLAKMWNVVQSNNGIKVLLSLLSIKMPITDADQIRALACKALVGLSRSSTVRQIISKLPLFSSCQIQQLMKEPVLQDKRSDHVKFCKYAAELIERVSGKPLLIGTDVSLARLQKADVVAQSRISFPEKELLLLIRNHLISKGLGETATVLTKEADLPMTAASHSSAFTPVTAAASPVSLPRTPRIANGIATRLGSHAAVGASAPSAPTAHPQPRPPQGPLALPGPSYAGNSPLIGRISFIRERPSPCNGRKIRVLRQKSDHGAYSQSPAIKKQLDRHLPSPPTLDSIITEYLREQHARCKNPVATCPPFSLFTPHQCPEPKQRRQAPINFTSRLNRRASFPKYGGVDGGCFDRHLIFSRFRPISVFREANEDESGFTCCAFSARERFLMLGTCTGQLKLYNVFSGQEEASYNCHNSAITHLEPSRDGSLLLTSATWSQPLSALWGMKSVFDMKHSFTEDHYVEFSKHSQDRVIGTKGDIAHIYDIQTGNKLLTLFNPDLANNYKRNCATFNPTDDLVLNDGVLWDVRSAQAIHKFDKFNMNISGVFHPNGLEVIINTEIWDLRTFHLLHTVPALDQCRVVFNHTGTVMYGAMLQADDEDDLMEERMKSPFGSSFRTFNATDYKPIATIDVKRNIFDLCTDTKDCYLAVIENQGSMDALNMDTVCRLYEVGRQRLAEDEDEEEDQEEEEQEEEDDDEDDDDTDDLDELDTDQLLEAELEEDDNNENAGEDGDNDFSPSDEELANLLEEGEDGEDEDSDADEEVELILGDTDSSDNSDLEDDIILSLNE
WDR5; 49 °C: 16100 a.u.
DCAF1; 26.4 °C: 8910 a.u.
DCAF1; 28.8 °C: 9230 a.u.
WDR5; 57.61 °C: 16400 a.u.
WDR5; 53.61 °C: 16700 a.u.
WDR5; 29.8 °C: 12700 a.u.
DCAF1; 84.41 °C: 40900 a.u.
DCAF1; 75.61 °C: 49300 a.u.

Sample 2
Structure (SMILES): CCN1/C(=C/C=C2\CCCC(/C=C/C3=[N+](CC)c4ccccc4C3(C)C)=C2NCCCCCCCCN2CCC(Nc3nc4ccccc4n3Cc3ccc(F)cc3)CC2)C(C)(C)c2ccccc21
Cell line: U-87 MG
Tested at: concentration not given
Baseline: DMSO
Measurement: log2 fold change
item: IGFN1 mRNA: -2.37
item: MXD3 mRNA: -2.12
item: SLC20A2 mRNA: -1.05
item: KANSL1L mRNA: 0.991
item: TULP3 mRNA: 1.47
item: ZFAND2A mRNA: 2.02
item: RCAN1 mRNA: 1.9
item: BRSK1 mRNA: 1.35
item: NR4A3 mRNA: 3.02
item: HOXB9 mRNA: 4.26
item: HMGN2 mRNA: -1.13

Sample 3
Cell line: MDA-MB-468
Observed: cell viability
Method: CellCounting-Lite
Tested at: 24.69 nM
Temperature: 37 °C
Direction: higher = more viable cells
Measurement: luminescence signal
CCn1cnc2c(NCc3nc4cc(Cl)c(Cl)cc4[nH]3)nc(N3CCN(C(=O)c4cccnc4)CC3)nc21: 56400 a.u. and 57400 a.u. and 65600 a.u.
CCn1cnc2c(NCc3nc4cc(Cl)c(Cl)cc4[nH]3)nc(N3CCN(Cc4ccncc4)CC3)nc21: 249000 a.u. and 285000 a.u. and 294000 a.u.
CCn1cnc2c(NCc3nc4cc(Cl)c(Cl)cc4[nH]3)nc(N3CCN(c4ccccn4)CC3)nc21: 460000 a.u. and 435000 a.u. and 515000 a.u.
CCn1cnc2c(NCc3nc4cc(Cl)c(Cl)cc4[nH]3)nc(N3CCN(C(=O)c4ccccn4)CC3)nc21: 64400 a.u. and 67300 a.u. and 64300 a.u.
CCn1cnc2c(NCc3nc4cc(F)c(F)cc4[nH]3)nc(N3CCn4ncnc4C3)nc21: 393000 a.u. and 419000 a.u.
CCn1cnc2c(NCc3nc4cc(Cl)c(Cl)cc4[nH]3)nc(N3CCN(S(C)(=O)=O)CC3)nc21: 223000 a.u. and 183000 a.u. and 232000 a.u.
CCn1cnc2c(NCc3nc4cc(Cl)c(Cl)cc4[nH]3)nc(N3CCN(C(=O)c4ccccc4)CC3)nc21: 258000 a.u. and 262000 a.u. and 269000 a.u.
CCn1cnc2c(NCc3nc4cc(Cl)c(Cl)cc4[nH]3)nc(N3CCN(C(=O)[C@H](C)NC(C)=O)CC3)nc21: 218000 a.u. and 221000 a.u. and 257000 a.u.
CCn1cnc2c(NCc3nc4cc(Cl)c(Cl)cc4[nH]3)nc(N3CCn4ncnc4C3)nc21: 84200 a.u. and 69500 a.u. and 75800 a.u.

Single results of other studies
Cell line: Gaucher fibroblasts L444P/L444P
Method: 4-MUG hydrolysis, cell lysate
Tested at: 1 µM
Ic1cccc(Nc2nc(NCCN3CCOCC3)nc(N3CCOCC3)n2)c1 — GCase activity (baseline: DMSO): 106% and 103% and 112% and 115%
Ic1ccc(Nc2nc(N3CCOCC3)nc(N3CCOCC3)n2)cc1 — GCase activity (baseline: DMSO): 179% and 172% and 162% and 148%
CCOc1ccc2nc(Sc3nc(Nc4ccc(I)cc4)nc(N4CCOCC4)n3)sc2c1 — GCase activity (72 h; baseline: vehicle): 113%
Ic1ccc(Nc2nc(NCCc3c[nH]c4ccccc34)nc(N3CCOCC3)n2)cc1 — GCase activity (72 h; baseline: vehicle): 182%

A few entries again (sample 3):
CCn1cnc2c(NCc3nc4cc(F)c(F)cc4[nH]3)nc(N3CCn4ncnc4C3)nc21: 393000 a.u. and 419000 a.u.
CCn1cnc2c(NCc3nc4cc(Cl)c(Cl)cc4[nH]3)nc(N3CCN(C(=O)[C@H](C)NC(C)=O)CC3)nc21: 218000 a.u. and 221000 a.u. and 257000 a.u.
